Measurements of several laboratories.
Each numbered part is a random draw from the data of one study; scales do not carry over between parts.

Series 1
Target: Phosphate system positive regulatory protein PHO4, full length, GST-tagged (PHO4, Saccharomyces cerevisiae, UniProt P07270, residues 1-312)
Technique: competition protein-binding microarray
Molecule type: double-stranded DNA, one strand shown
Sample: in vitro
Concentration: 2 µM
Setting: whole 60-bp probe, lowest competitor level
With: Cbf1 competitor, 0.05 µM
Reading: higher = stronger binding
Shared flanks, not repeated: … GTCTTGATTCGCTTGACGCTGCTG
Construct (chain): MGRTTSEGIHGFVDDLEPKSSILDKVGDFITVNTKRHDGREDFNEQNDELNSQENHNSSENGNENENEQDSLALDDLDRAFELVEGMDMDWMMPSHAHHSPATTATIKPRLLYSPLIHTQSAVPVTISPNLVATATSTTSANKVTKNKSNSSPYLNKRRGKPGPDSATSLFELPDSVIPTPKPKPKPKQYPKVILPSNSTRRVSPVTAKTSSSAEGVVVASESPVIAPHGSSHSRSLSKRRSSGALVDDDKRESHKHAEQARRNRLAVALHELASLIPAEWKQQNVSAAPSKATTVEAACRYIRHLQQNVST
Strand | fluorescence intensity [a.u.]
ACACCATCGCATACCCACGTGGCCGCTTCGTTTGCC | 18600
CATAATAACAGTTGCGTTGTGACGCTATTGTTAACA | 4360
AGAATGTCCCCTGTACACGTGGCAGATTGGCTGAAA | 17600
ACACACATTCTCCGTCACATGGACGATGCCAGAGTC | 9580
AAACGGGAACGAGCGTTCGTGCGGAGTGATGGTTAG | 7120

Series 2
Target: Interferon regulatory factor 5, full length, phosphomimetic (IRF5, Homo sapiens, UniProt Q13568-2, residues 1-514, K96S/S451D/S453D/S456D/S462D)
Technique: protein-binding microarray
Molecule type: double-stranded DNA, one strand shown
Sample: in vitro
Concentration: 250 nM
Setting: 60-bp whole probe
With: salmon DNA 0.4 mg/ml
Reference: random background probes
Reading: higher = stronger binding
Shared flanks, not repeated: GCCTAGCAC … GTCTTGATTCGCTTGACGCTGCTG
Strand | log fluorescence
TCAGTCCTCCTGACTGGGACTGTGCTA | -0.484 z-score
AGACGAATCATATCAAAATTGTGCTAG | 0.586 z-score
TCATTTTTTTTTTCCCTACTGTGCTAG | 1.27 z-score
TTAGTTTTCAGACTGGATTAGTGCTAG | 1.04 z-score
TTGGAACTGAGTTTCGATTAGTGCTAG | 9.06 z-score
GACGATTTCAGCTCCGAGACGTGCTAG | 0.368 z-score

Series 3
Target: Histone acetyltransferase KAT6A, both winged helices, GST fusion (KAT6A, Homo sapiens, UniProt Q92794, residues 1-181)
Technique: protein binding microarray
Molecule type: double-stranded DNA, one strand shown
Sample: in vitro
Concentration: not given
Setting: 8-mer, flanks averaged, mean of 2 arrays, mostly near background
Reference: not given
Reading: higher = stronger binding
Construct (chain): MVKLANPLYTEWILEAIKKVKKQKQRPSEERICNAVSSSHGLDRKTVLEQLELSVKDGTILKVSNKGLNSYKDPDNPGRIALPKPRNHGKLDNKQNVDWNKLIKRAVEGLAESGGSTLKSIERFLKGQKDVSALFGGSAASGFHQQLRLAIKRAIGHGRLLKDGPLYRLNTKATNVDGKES
Strand | E-score
CATCTGAA | -0.0177
AGCCCCCG | 0.135
AGCAGAGC | -0.163
AGACTATC | -0.0572
ACGTCTGC | 0.083
AAGTACTA | -0.0534

Other studies, line by line
Substance | target | test | system | setting | how to read | quantity | value
PhoQ, residues 284 288 289 292 302 303 HSYLQF | PhoP, residues 12 14 15 18 19 HLGGL (Escherichia coli, UniProt P23836) | Sort-seq, measured: YFP reporter | E. coli | PhoQ-PhoP variant library, with: 10 µM Mg2+ | reference: high Mg2+ state, higher = stronger signaling | fold induction | 1.13

For quick reference, copied from above (series 3):
Strand | E-score
ACGTCTGC | 0.083
AAGTACTA | -0.0534
